Experimental data collected from several papers.
Each numbered part is a random draw from the data of one study; scales do not carry over between parts.
Sequence of UniProt Q15418 (whole entry, looked up): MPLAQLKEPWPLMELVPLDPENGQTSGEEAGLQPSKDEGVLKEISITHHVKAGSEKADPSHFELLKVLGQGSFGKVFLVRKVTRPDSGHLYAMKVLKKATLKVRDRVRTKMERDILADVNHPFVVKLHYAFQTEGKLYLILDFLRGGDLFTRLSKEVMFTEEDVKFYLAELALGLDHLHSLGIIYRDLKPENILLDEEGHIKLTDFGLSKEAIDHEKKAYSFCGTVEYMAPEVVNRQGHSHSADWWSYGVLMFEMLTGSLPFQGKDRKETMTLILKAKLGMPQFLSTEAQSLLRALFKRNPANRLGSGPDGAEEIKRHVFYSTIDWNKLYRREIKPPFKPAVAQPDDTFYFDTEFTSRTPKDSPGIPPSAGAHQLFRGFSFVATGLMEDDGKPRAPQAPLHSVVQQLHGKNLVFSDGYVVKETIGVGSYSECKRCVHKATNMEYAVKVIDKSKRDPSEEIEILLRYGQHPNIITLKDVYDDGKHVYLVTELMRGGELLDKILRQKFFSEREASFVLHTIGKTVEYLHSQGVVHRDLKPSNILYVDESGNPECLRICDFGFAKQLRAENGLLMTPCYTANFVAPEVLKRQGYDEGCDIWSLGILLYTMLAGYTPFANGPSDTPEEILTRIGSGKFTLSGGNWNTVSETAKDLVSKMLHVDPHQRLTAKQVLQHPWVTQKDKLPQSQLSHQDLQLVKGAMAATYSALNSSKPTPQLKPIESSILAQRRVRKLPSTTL

Study 1 — observed: Ni-NTA bead binding; method: phage display NGS; molecule type: peptide; matrix: phage-displayed 15-mer library; concentration: concentration not given; added: Ni-NTA beads 20 µL; relative to: input library
For `TAPFYPPAYAIQVFK`, “enrichment fold change” read 0.785.
Under “enrichment fold change”, `TAPFYPPAYFIQVFK` is recorded as 1.87.
Under “enrichment fold change”, `TAPFYPPAYEIQVFK` is recorded as 0.737.

Further values, each from its own experiment
pknB: Serine/threonine-protein kinase PknB (pknB, Mycobacterium tuberculosis, UniProt P9WI81)
Sequence of UniProt P9WI81 (whole entry, looked up): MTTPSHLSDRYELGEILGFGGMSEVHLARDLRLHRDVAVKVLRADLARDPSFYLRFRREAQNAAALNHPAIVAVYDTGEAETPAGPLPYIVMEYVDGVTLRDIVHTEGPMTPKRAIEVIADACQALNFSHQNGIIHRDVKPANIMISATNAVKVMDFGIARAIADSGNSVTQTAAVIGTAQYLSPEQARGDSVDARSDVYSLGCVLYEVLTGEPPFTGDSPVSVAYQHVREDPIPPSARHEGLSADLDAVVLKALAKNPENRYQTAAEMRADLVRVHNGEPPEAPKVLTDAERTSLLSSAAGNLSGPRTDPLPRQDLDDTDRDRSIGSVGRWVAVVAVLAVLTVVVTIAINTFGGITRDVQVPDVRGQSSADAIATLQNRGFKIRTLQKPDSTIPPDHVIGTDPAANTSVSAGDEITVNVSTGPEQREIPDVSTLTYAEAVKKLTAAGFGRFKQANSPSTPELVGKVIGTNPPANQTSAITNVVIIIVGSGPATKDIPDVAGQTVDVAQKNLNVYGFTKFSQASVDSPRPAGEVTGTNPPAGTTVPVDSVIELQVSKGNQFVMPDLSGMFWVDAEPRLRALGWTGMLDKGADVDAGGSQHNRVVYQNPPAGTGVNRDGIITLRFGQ
With `CCOC(=O)c1cc2cc(-c3cc(C(=O)NCc4ccc(C(=O)O)cc4)nn3C)ccc2[nH]1` the remaining binding was 100% (pknB; cell-free assay, competition with immobilised ligand; 0.1 µM).
`O=C1N=C(O)C(CCc2ccncc2)(Cc2ccc(OCc3ccccc3)cc2)C(=O)N1` (centres unmarked) has a remaining compound of 21.8% (human, microsomes or S9; 2 µM, 0.5 h).
`COC[C@H]1OC(=O)c2coc3c2[C@@]1(C)C1=C(C3=O)[C@@H]2CCC(=O)[C@@]2(C)C[C@H]1OC(C)=O` has a remaining activity of 91.3% (Ribosomal protein S6 kinase alpha-1 (RPS6KA1, Homo sapiens, UniProt Q15418); enzyme activity, inhibitor; 0.5 µM; relative to: control).
For `O=C(O)[C@@H]1[C@@H](Cn2nnc3ccccc3c2=O)CC[C@H]1C(=O)c1ccc(OCCC2CCOCC2)cc1`, the remaining binding was 94% (pknB; cell-free assay, competition with immobilised ligand; 1 µM).
The remaining compound of `CC(C)=CCN1CCCC(C(=O)c2nccn2C)C1` (centres unmarked) is reported as 84.9% (human, microsomes or S9; 2 µM, 0.5 h).

A few entries again (study 1):
For `TAPFYPPAYAIQVFK`, “enrichment fold change” read 0.785.
